Experimental data pooled from the literature.
Every numbered part comes from another study and shows a few of its results, in no order.

Series 1 — method: RNA Bind-n-Seq; molecule type: RNA; sample: in vitro; concentration: 100 nM; reference: input RNA pool; reading: higher = stronger binding
Target: RING finger protein unkempt homolog, zinc fingers 1-6, SBP tag (UNK, Homo sapiens, UniProt Q9C0B0, residues 30-357)
Sequence of UniProt Q9C0B0 (30-357, looked up): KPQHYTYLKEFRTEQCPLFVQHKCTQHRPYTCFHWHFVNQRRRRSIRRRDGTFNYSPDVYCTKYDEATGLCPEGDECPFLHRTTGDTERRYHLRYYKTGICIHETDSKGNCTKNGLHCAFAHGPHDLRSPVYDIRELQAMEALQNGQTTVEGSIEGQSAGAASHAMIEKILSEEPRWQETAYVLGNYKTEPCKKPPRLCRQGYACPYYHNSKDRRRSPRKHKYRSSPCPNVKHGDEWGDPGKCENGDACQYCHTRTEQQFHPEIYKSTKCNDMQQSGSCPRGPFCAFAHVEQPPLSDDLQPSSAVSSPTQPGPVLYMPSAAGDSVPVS
Notes: RNA with constant flanks, vertebrate orthologous sites, ends assumed
Constant ends, left off below: GGGAGUUCUACAGUCCGACGAUC … CAACAGAGGAUUGAGCAUCA
Strand | bound/input enrichment [ratio]
UUCGCUGAGUGGCAGCCUGCCAUCAGUGGCCGACUCCCACUCCAGCCACUUCUCUGAGUUCAGCUGCUCCGACCUGGAGAGCAUGAAGACCUCGUGUAGCCACGGCUCCAGCGGUGGCGA | 0.211
AUUGUGUGUGAAAUAUGUCUGAGAAGAGAUGUAGCAUUCUAUAAAUAUUACCAAGUAAUUUAGCUAUAAUAUUUUUAGAUAUAAAUUACAUGUCAAGCAUUUAAAGUAUGAAUUUGAGGU | 0.302
CAGCUGAUUCACUCAUUGGGAGAGCUGCACAUAUAGCUGUUCUUGAUUCGGAAAUAUUUUUAGAGAAAUUCUUUCUGGUUGCUGCCCUCAAAUAUUUCCAAUAGUGUAAAAGCAUUGUUA | 0.816
GGGUGGCCGGUGGGGGAAUCCCAUGCCCUGGCCUUGCCUCCCCUCCCUGCCACCCGCUCCUAGUUAUUUUUUUUUUUAACCACCAUGUGAUUAAGGUCGGCACUGCCUCCCCCGACCCGC | 2.96
AUUCAAACCUGUGGUACCAUGGCCUCAUGUUGAAGGAGUAGAAGUGGAUUUAGAGUCUAUUAGAAGAAAAAACAAGGCCAAAAAUGAACAAGAACACCAUGCUGGCGGAGAUUCCCAGAA | 0.41
CUCUCUGAGCGGGAGCCUGCCGUCUGUGGCCGAUUCGCACUGCAGCCACUUCUCGGAGUUCAGCUGCUCCGACCUGGACGCCUGCCGUCCACACGAACUGCAUUCUAGGCCUUCGAAUGC | 0.377
AUGCAUAUGCCGCUCACCAAAAGCAAACUACCACUUCUCAAAUUUCAUUCAGAGCUGUUUUAGUGUUUCCUAUUCCCCACCCUUCCCACUACUUUCAAUGAUCAAAUAUUCUAAGUUCUC | 2.07
GACCUCCUAAACUUCUAGCUUUCCAGCGGUAGCUGUUUUAGAUACUGAUUUUCUUUUCUUUGGAGUUUUUUCCUGUUCCCUGCCUUCUCUUCCCCUGUUCCCACAGUUUGACUUCUGGAU | 1.63
AGUUUUGGAUGCAGUGUAUAAAUUAUCCAAGGCAGUGACUUCAGCGUUAGAGAUAUUGUUAGCUUUAAAGUCGUCUACGUUUCUUUAAACGUCUUCAUUGGGUUGUUUGCUGCUGUUCUU | 0.492
ACAUAGACUCAUCGGAAAUUGCUCUGAGGUUCCUGAAGUCAUUACACAGGCUUCCACCUAAGUAUAGUGUUUUGUUUUGUUUUAACUUGGGUACUGUUUCCACAGUUAAUGUUUUUAAAA | 0.517
GGUUGAUGUUCUGAAGAACCACUUAGUAAAAGAAGGUCGGGUAGAUGAAGAAAUUGCACUUAGAAUUAUCAAUGAGGGUGCGGCCAUCCUUCGGAGAGAGAAAACCAUGAUAGAAGUAGA | 1.23

Series 2 — method: RNA Bind-n-Seq; molecule type: RNA; sample: in vitro; concentration: 365 nM; reference: no-protein control; reading: higher = stronger binding
Target: RNA binding protein fox-1 homolog 2, RRM domain, GST-SBP tag (RBFOX2, Homo sapiens, UniProt O43251-10, residues 100-194)
Notes: natural RNA segment, single round, ends assumed
Constant ends, left off below: GGGAGUUCUACAGUCCGACGAUC … UGGAAUUCUCGGGUGCCAA
Target sequence (chain): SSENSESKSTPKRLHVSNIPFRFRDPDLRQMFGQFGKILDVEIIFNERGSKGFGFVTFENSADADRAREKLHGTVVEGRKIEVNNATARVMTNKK
Strand | RBNS enrichment (R)
AUUUUCAAAGAAAGUAAUGUUGUUAAAUGGGGCGAAAUAAGAAGUUAAAUUUGAAAGUGAAUGUGUUCAAAUGAAAGGUUUGAUAAUUGCAUCUGUUACUACUUAGUUUC | 2.82
CCUUGAAGGACACAGAGAGAAGUAUGUGUGUGUGGUGUGUUUCCAGCUCUGGCUCCCGAAGGGGCAAAGCAGCCUCCUGUUUACAGAAGGUCCACGCGAGCUAUCCCCGU | 0.852
CCAUGUAUUCUAGGCCAGGUAGGCAACACAGAGCCAAGGCGGGUGCUGGAAGCCAGACGGAACAGUGUUGGGGCAGGAAGGUGGAUGCUGUUGUCAUGGAGCUGUGGGAG | 0.902
GCAGGUAAUUCUGAUGCAUGCUCAAGUUUGAGAACCACUGGCCUAGAAGAAAUGAACUACUGCAACUUAUGAGGAAUCAUGAGAUCCAGCUCACUUUUGCUCAAUACCUA | 9
AAACUCCUUAAUAUGAUCUGUGGAGAAUGUACACAGUUUAAACACAUCAAUAAAUACUUUAACUUCCACCGAGACUGCUCGUUUCACUGACUGCGGCAUUGAUCUGCGUG | 5.63
GUUUAGGAAGGAUUUGCUUGCUUGCAGCAGAAGUUCUAGGAAAAGCAGGCACCUCCCAAAUAUCUUGAGGACACUGGCAGCCUUAUGGUGACUAAAUCCACACUUUCUUU | 0.289
CUACAGCUUAGAAACCCAAUAUCAGUUGUACUUAACAUCUUUAAGAGCAUGAUCAUAAAGGCUAUUUUGACAGUUCAUUUUAACAUUUAGAGUUGAUAAGGGUUUAUAUC | 1.9
ACCGUGAUUAACUCAUAGCUACAUAUCAUUGCAUAAAUGGGAUUUAUCUUUUUUCUCACUUAUUUUUGCGGUGAAAGUCGAGGGCAUGCAAGAGUUUCUCUUCCAGAAGC | 0.748
UUGUGUUGUAUUUUUGUUUUUAAAUAAAAGUACAGUAUAAAUUUUCCUAUUAAAUAAGAUUAUUUUAAGUUUUAGUGUCAACAUUGCAAUGCCAAUAGUAGGUGAGAGUG | 0.562
ACGGUGCGGUAAUGACUGCCCAGGCUGCCUGAGUCUCUGACCCUCUGAGGAGUUCGAGCAGGGCAGUCAGAUUUUUAAAGUUUUGUACAGUUUUCCUUUGUAUUCACUUC | 0.452
AAUGCAUACUGCUGGCCAAUCAGUGUCAUCUCCUGGGUAAAUUUUGAUGUCGCAUUAUAAAGACAUGCAUAAUUGAUGGUUUCUAGAUUAUCUAGUCCAAACAAUAGAGU | 0.538
CCCUGUCCCACCACUCUCAGAGAGGGUGUACCUGUCAAACUGGAUGGCCUACAUAGGUACUCCCCCCUACCCCUAGGAUGCAGAGAGACGGGAACACGCCGGAGGGUAGA | 0.6

Series 3 — method: protein-binding microarray; molecule type: double-stranded DNA, one strand shown; sample: in vitro; concentration: 250 nM; notes: 60-bp whole probe; together with: salmon DNA 0.4 mg/ml; reference: random background probes; reading: higher = stronger binding; constant ends, left off below: GCCTAGCAC … GTCTTGATTCGCTTGACGCTGCTG
Target: Interferon regulatory factor 5, full length, phosphomimetic (IRF5, Homo sapiens, UniProt Q13568-2, residues 1-514, K96S/S451D/S453D/S456D/S462D)
Strand | log fluorescence
TTAGGTTTCCTAATGCTTTAGTGCTAG | 0.737 z-score
GACGGACTGGACTATCCGGACGTGCTA | -0.405 z-score
CCATTTTGGTTTTCTCTATTGGTGCTA | 1.79 z-score
CTTGCTTTCCTACTGAAATAGTGCTAG | 1.06 z-score
TCCTATGTCATTTACATTTTGTGCTAG | 0.281 z-score
TTAGGACCGGACACTGGGTTAGTGCTA | -0.681 z-score
TCAAATTTGAGTCACTGACTGTGCTAG | -0.167 z-score
GGTCTTCTGGGCTGTTTAGTCGTGCTA | -0.517 z-score
GACGGTCTCGGTATCGGGTCGTGCTAG | 1.86 z-score
TCATCACTCTAATCTCACACTGTGCTA | 0.845 z-score
GACGGTATCGGGTGTCGGGACGTGCTA | 2.26 z-score
CACGATTTCAGTATCGAGACGTGCTAG | 3.31 z-score
ACCCATCTCAAGTAGCCTAGCGTGCTA | -0.363 z-score
GACGAAATGGGGACTGGAGACGTGCTA | 0.153 z-score
TTAGATTTCAGGTCCGATTAGTGCTAG | 1.1 z-score
GACGATCTCTGTATCGAGACGTGCTAG | 1.03 z-score
TCATAATTTACTTTGGTACTGTGCTAG | 0.513 z-score

Series 4 — method: universal PBM; molecule type: double-stranded DNA, one strand shown; sample: in vitro; concentration: not given; reading: higher = stronger binding
Target: Sal-like protein 4, full length isoform B (SALL4, Homo sapiens, UniProt Q9UJQ4-2, residues 1-616)
Notes: 8-mer, flanks averaged, mean of replicates
Construct (chain): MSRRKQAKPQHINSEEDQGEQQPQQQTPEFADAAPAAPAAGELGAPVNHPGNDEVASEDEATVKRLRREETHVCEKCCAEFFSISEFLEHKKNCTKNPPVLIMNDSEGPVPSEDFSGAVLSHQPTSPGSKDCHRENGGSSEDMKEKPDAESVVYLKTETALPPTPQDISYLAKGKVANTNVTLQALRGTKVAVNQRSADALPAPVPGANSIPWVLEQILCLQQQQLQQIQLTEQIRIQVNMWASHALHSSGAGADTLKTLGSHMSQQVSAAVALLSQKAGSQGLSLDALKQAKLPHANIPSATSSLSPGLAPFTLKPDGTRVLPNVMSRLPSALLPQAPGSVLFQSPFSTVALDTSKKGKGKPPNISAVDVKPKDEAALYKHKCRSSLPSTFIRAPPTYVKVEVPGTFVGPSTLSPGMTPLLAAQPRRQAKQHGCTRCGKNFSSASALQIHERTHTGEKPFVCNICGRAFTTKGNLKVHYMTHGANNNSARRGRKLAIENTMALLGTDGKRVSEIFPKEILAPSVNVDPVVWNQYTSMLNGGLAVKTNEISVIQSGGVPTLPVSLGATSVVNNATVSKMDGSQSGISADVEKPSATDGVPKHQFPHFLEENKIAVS
Strand | E-score
CATAGTAG | 0.135
CTGTTCGA | -0.0499
CTTTAAGA | 0.14
GGATTTCA | 0.114
ATGTGAGA | 0.21
CTGGTTAA | 0.0923
GCATTGTA | 0.123
ACTCTCAG | -0.0364
CTAGTGCC | -0.167
ACAGCGCA | -0.225
ACACCTAC | 0.131
AGAGATTC | 0.0567
ACACGCAC | -0.229
GCAGTTAA | 0.0563
CACACCAA | -0.00943
ATGTTTTC | 0.295

Series 5 — method: RNA Bind-n-Seq; molecule type: RNA; sample: in vitro; concentration: 200 nM; notes: whole 134-nt RNA, ends assumed; together with: 150 mM LiCl; reference: input library; reading: higher = stronger binding; library: 7-deaza-guanosine replaces G
Target: Ras GTPase-activating protein-binding protein 1, full length (G3BP1, Homo sapiens, UniProt Q13283)
Sequence of UniProt Q13283 (whole entry, looked up): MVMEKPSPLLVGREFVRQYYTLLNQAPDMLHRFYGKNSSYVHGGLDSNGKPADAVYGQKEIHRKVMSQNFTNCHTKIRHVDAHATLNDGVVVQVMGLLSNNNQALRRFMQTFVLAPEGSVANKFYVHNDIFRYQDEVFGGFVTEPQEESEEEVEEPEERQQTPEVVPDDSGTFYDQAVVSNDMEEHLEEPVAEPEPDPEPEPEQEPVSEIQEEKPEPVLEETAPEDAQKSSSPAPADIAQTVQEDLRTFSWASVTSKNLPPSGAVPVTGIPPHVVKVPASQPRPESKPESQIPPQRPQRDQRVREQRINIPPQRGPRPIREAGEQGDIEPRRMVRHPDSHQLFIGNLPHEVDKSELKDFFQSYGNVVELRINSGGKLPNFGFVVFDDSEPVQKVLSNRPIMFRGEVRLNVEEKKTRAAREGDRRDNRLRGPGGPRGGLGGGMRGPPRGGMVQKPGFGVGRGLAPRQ
Constant ends, left off below: GGGAGUUCUACAGUCCGACGAUC … UGGAAUUCUCGGGUGUCAAGG
Strand | log2 enrichment
UGGGAGGUGGAUUUUGUUUAUUUUUUUAGCUCAUUUCCAGGGGUGGGAAUUUUUUUUUAAUAUGUGUCAUGAAUAAAGUUGUGUUUGAAA | 0.195
UCGGCUACACUGCCCGGAGAAUUCUCAAUGAGGAUGGCAGCCCUAACCUGGACUUCAAGCCUGAAGACCAGCCCCAUUUUGACAUCAAGG | -0.751
UCCUGUGCUACACAUCGUAUGUACCGAAUCAAAGUGUGUGUGUGUGUGUGUGUGUGUAAAAAAGUAUUAUGUUACGCCGUUCGGAUCUGC | -0.727
UGUCAUGGAUUCAAGUUAUUAAAAGCAUAAGUUUGGAAGACAGGCUUGCCGAAAUUGAGGACAUGAUUAAAAUUGCAGUGAAGUUUGAAA | -4.29
GUCCUGUGCUACACAUCGUAUGUACCGAAUCGGGAAAAAAAGGGAAAGGGUUUUUGGGAAAGUAUUAUGUUACGCCGUUCGGAUCUGCAC | -1.17
CAUGUUGAAAGACAUGCUUUUAUUUUUUUGUAAAACAAUAUAGGAGCUGUGUCUACUAUUAAAAGUGAAACAUUUUGGCAUGUUUGUUAA | -3.27
CCUCAAGUCCUGUGCUACACAUCGUAUGUACCGAAUCGGCCGGGCCGGGCCGGAAAGUAUUAUGUUACGCCGUUCGGAUCUGCACUUCCA | 0.153
CCUGUGCUACACAUCGUAUGUACCGAAUCGGGGAGGGGAAAAAAAGGGGAAAAAAAGGGGAAAGUAUUAUGUUACGCCGUUCGGAUCUGC | 0.883
GUCCUGUGCUACACAUCGUAUGUACCGAAUCGGAAAAAGGGGAAAAAGGGAAAAAGGGAAAGUAUUAUGUUACGCCGUUCGGAUCUGCAC | 0.0307
UCCUGUGCUACACAUCGUAUGUACCGAAUCGGGUUUUUUUGGGAAAAAGGGUUUUUGGGAAAGUAUUAUGUUACGCCGUUCGGAUCUGCA | -2.14
AAGUCCUGUGCUACACAUCGUAUGUACCGAAUCAAACCCAAACCCAAAUUUUUAAAAAAGUAUUAUGUUACGCCGUUCGGAUCUGCACUU | 1.02
